Assay results collected from several papers.
Each line is one published result; not all experiments were run side by side. Values joined by “and” are separate records of one study, mostly repeats; a detail may differ. ± marks the error that the study gave.

Compound	test	system	conditions	half-life
CC(C)(C)OC[C@@H]1C(=O)NCCN1C(=O)C[C@H](N)Cc1cc(F)c(F)cc1F		human, male, plasma	oral, single dose, fixed-dose combination with metformin, fasted	32.6 ± 7.15 h
O=C(O)[C@H](c1ccccc1Cl)N1CCc2sccc2C1		human patients, CYP3A4 wt/wt, plasma	75 mg clopidogrel daily, day 7, median	7.19 h
COc1cc(N2CCC(N3CCN(C)CC3)CC2)ccc1Nc1ncc(Cl)c(Nc2ccccc2P(C)(C)=O)n1		healthy humans, plasma	oral, 180 mg, alone, geometric mean	24.8 h
CCCOc1ccc([C@H]2CNC(=O)N2c2ccc3[nH]cnc3c2)cc1		human, fasted, elderly, CSF	oral, 300 mg twice daily, capsule, day 7, geometric mean	6.22 h
O=C(c1ccc(OCCN2CCCCC2)cc1)c1c(-c2ccc(O)cc2)sc2cc(O)ccc12		healthy humans, plasma	oral, 60 mg, with: chronic green tea	22.7 h
CCS(=O)(=O)N1CC(CC#N)(n2cc(-c3ncnc4[nH]ccc34)cn2)C1		healthy Chinese human subjects, plasma	oral, 4 mg, single dose, mean	7.36 h
COC(=O)c1ccc2c(c1)NC(=O)/C2=C(\Nc1ccc(N(C)C(=O)CN2CCN(C)CC2)cc1)c1ccccc1		human, hepatic impairment Child-Pugh A, plasma	oral, 100 mg single dose, geometric mean	41.1 h
CCCCC1(CCCC)CN(c2ccccc2)c2cc(SC)c(OCC(=O)N[C@@H](C(=O)NCC(=O)O)c3ccccc3)cc2S(=O)(=O)C1	LC-MS/MS	human, plasma	oral, 2.5 mg, single dose, before breakfast	1.62 h
CCCC(CCC)C(=O)O	fluorescence polarization immunoassay, item: total drug	human, plasma	oral, 25 mg/kg/day, first dose	11 ± 2.7 h
C=CC[C@@H]1/C=C(\C)C[C@H](C)C[C@H](OC)[C@H]2O[C@@](O)(C(=O)C(=O)N3CCCC[C@H]3C(=O)O[C@H](/C(C)=C/[C@@H]3CC[C@@H](O)[C@H](OC)C3)[C@H](C)[C@@H](O)CC1=O)[C@H](C)C[C@@H]2OC		healthy humans, whole blood	oral, 5 mg single dose	40 h
Cc1ccc(NC(=O)c2ccc(CN3CCNCC3)cc2)cc1Nc1nccc(-c2cccnc2)n1		human, plasma	oral, 400 mg imatinib first dose, day 1 of cycle 1, metabolite of imatinib alone, mean	14.4 h
C=CC(=O)Nc1cc(Nc2ncc(C(=O)OC(C)C)c(-c3cn(C)c4ccccc34)n2)c(OC)cc1N(C)CCN(C)C		human, plasma	oral, 160 mg, arithmetic mean, alone	27.6 h
CC[C@H](C)[C@@H]1NC(=O)[C@H](CCCNC(=N)N)NC(=O)[C@H](CC(=O)O)NC(=O)[C@H](CC(C)C)NC(=O)[C@H](CCCCN)NC(=O)[C@H](CC(C)C)NC(=O)CNC(=O)[C@H](Cc2ccccc2)NC(=O)[C@@H](NC(=O)CNC(=O)[C@H](CCCCN)NC(=O)[C@H](CO)NC(=O)[C@H](CC(C)C)NC(=O)CNC(=O)[C@H](CCCCN)NC(=O)[C@H](CCCCN)NC(=O)[C@H](CC(N)=O)NC(=O)[C@H](C)NC(=O)CNC(=O)[C@H](CCCCN)NC(=O)[C@H](Cc2ccc(O)cc2)NC(=O)[C@H](CCCCN)NC(=O)[C@H](CCCNC(=N)N)NC(=O)[C@H](C)NC(=O)[C@H](CC(N)=O)NC(=O)[C@@H]2CCCN2C(=O)[C@H](Cc2c[nH]cn2)NC(=O)[C@H](CCC(=O)O)NC(=O)[C@H](CCC(N)=O)NC(=O)CNC(=O)[C@@H]2CCCN2)CSSC[C@@H](C(=O)O)NC(=O)CNC(=O)[C@H](CC(C)C)NC(=O)CNC(=O)[C@H](CO)NC(=O)[C@H](CCSC)NC(=O)[C@H](CO)NC(=O)CNC1=O		human, plasma	subcutaneous, 15 µg/kg once daily, week 26	0.443 h
CN1CC[C@@H](NC(=O)Nc2ccc(C#N)cc2)C[C@@H]1c1nc2ccccc2[nH]1	item: total compound	human, moderate hepatic impairment, plasma	oral, 100 mg, fasted, single dose, arithmetic mean	18.4 ± 3.5 h
O=c1[nH]c(=O)c(Cc2cccc(C(F)(F)F)c2)c([C@H]2CC[C@H](c3ccccc3)CC2)[nH]1		human, fasted, plasma	oral, 100 mg single dose, geometric mean	21.6 h
O=C(c1cccnc1-c1ccncc1)N1CCC(O)(Cc2ccccc2)CC1		healthy human, plasma	oral, 100 mg once daily, day 14, arithmetic mean	3.83 h
O=C(/C=C/c1cccc(S(=O)(=O)Nc2ccccc2)c1)NO		human moderate liver dysfunction, plasma	intravenous, 400 mg/m^2, 30 min infusion, cycle 1 day -7	2.4 h
Nc1nc2c(c(=O)[nH]1)N(C=O)C(CNc1ccc(C(=O)N[C@@H](CCC(=O)O)C(=O)O)cc1)CN2 (stereo partly drawn)	item: 5-formyltetrahydrofolate	human, plasma	intravenous, 214 nmol	0.593 h and 0.376 h and 0.262 h and 0.3 h
Cc1ccc(NC(=O)c2ccc(CN3CCN(C)CC3)cc2)cc1Nc1nccc(-c2cncc(-c3oncc3C)c2)n1		older healthy human adults, plasma	oral, 37.5 mg single dose, fed, mean	24.4 h
CCN1CCN(Cc2ccc(Nc3ncc(F)c(-c4cc(F)c5nc(CO)n(C(C)C)c5c4)n3)nc2)CC1		human patients, plasma	oral, 150 mg, single dose, geometric mean	13.3 h
CCn1c(C(=O)c2cc(C)cc(C#N)c2)c(C(C)C)c(=O)[nH]c1=O		healthy humans, plasma	oral, 600 mg once daily, 7 days	20.7 ± 3.7 h
C[C@H](N)C(=O)N1C[C@H](CCCB(O)O)[C@](N)(C(=O)O)C1		human, plasma	oral, dose not given, cycle 1 day 15, multiple dosing, all doses pooled	6.1 ± 1.6 h
CC(C)(C)OC[C@@H]1C(=O)NCCN1C(=O)C[C@H](N)Cc1cc(F)c(F)cc1F		human	20 mg once daily, day 10, steady state	38.8 ± 5.7 h
Cc1c(Cl)c(C)[n+]([O-])c(Cl)c1-c1noc(-c2cc(O)c(O)c([N+](=O)[O-])c2)n1	LC-MS/MS	healthy male human, fasted, plasma	oral, 50 mg single dose, tablet	1.42 ± 0.664 h

Compound	test	system	conditions	half-life
Cc1cccc(C)c1OCC(=O)N[C@@H](Cc1ccccc1)[C@@H](O)C[C@H](Cc1ccccc1)NC(=O)[C@H](C(C)C)N1CCCNC1=O		human, HIV+/HCV+, plasma	oral, total drug, steady state, median, with: lopinavir/ritonavir twice daily	6.5 h
CN[C@@H]1COc2c(S(=O)(=O)NC(=O)Nc3c4c(cc5c3CCC5)CCC4)cnn2C1		human	oral, 300 mg twice daily, day 7	4.2 h
CN(Cc1cnc2nc(N)nc(N)c2n1)c1ccc(C(=O)N[C@@H](CCC(=O)O)C(=O)O)cc1		human	oral, day 8, with: isavuconazole	3.7 h
CNc1nc(Nc2ccc(-n3cnc(C)n3)c(OC)c2)nc2c1CC[C@H]2c1ccc(F)cc1		elderly humans, both sexes, plasma	oral, 900 mg single dose	63 h
Cc1[nH]c(/C=C2\C(=O)Nc3ccccc32)c(C)c1CCC(=O)O	HPLC-UV	human, cancer patients, plasma	oral, 400 mg/m^2 three times daily, after meal, second dose	1.99 h
CS(=O)(=O)n1cc2c(n1)CN([C@H]1CO[C@H](c3cc(F)ccc3F)[C@@H](N)C1)C2		healthy male human, plasma	oral, 50 mg single, fasted, geometric mean	47.7 h
COc1cc2ncnc(Nc3ccc(F)c(Cl)c3)c2cc1OCCCN1CCOCC1		human, plasma	oral, 250 mg, with: vorinostat 400 mg	25.2 ± 11.4 h
COCCCCn1c(C(=O)N(CC(C)C)[C@@H]2CNC[C@H](C(=O)N3CCOCC3)C2)nc2ccccc21		human, elderly, plasma	oral, 80 mg once daily, day 7, mean	14.8 h
CCCC[C@H](NC(C)=O)C(=O)N[C@H]1CCC(=O)NC[C@@H](C(=O)N[C@@H](Cc2c[nH]c3ccccc23)C(N)=O)NC(=O)[C@H](CCCNC(=N)N)NC(=O)[C@@H](Cc2ccccc2)NC(=O)[C@H](Cc2c[nH]cn2)NC1=O		healthy human volunteers, plasma	subcutaneous, 3.0 mg once daily, day 7	12.6 h
Nc1ccc(-c2nc([C@H]3CCc4cc(-c5cc(Cl)ccc5-n5cnnn5)cc(=O)n43)c(F)[nH]2)c(F)n1		human, plasma	oral, 250 mg once daily, day 14, fed	22.1 h
CO[C@H]1C[C@@H]2CC[C@@H](C)[C@@](O)(O2)C(=O)C(=O)N2CCCC[C@H]2C(=O)O[C@H]([C@H](C)C[C@@H]2CC[C@@H](O)[C@H](OC)C2)CC(=O)[C@H](C)/C=C(\C)[C@@H](O)[C@@H](OC)C(=O)[C@H](C)C[C@H](C)/C=C/C=C/C=C/1C		healthy adult human, blood	0.5 mg single dose, harmonic mean, with: ritonavir-containing 3D regimen	249 h
COC(=O)N[C@@H](C)CNc1nccc(-c2cn(C(C)C)nc2-c2cc(Cl)cc(NS(C)(=O)=O)c2F)n1		human, plasma	oral, dual combination	3 to 4 h
Cc1cccc(C)c1N(CC(=O)Nc1ccc(-c2ncon2)cc1)C(=O)C1CCS(=O)(=O)CC1		human male, plasma	oral, 400 mg single dose, arithmetic mean, alone	7.5 h
CCOc1ccc(Cc2cc([C@@H]3S[C@H](CO)[C@@H](O)[C@H](O)[C@H]3O)c(OC)cc2C)cc1		human, plasma	oral, 10 mg/day, day 7, multiple dose before breakfast	9.14 ± 1.11 h
NC(=O)N1CCC(CC(=O)N2CCC([C@H]3c4ncc(Br)cc4CCc4cc(Cl)cc(Br)c43)CC2)CC1		human, plasma	oral, 150 mg twice daily, cycle 1 day 15, multiple dose, with: gemcitabine 750 mg/m2	3.67 h
CC[C@@H]1C(=O)N(C)c2cnc(Nc3ccc(C(=O)N[C@H]4CC[C@H](N5CCN(CC6CC6)CC5)CC4)cc3OC)nc2N1C(C)C		human, plasma	intravenous infusion, 250 mg over 2 h, first infusion, geometric mean	136 h
O=C(CCCCCCC(=O)Nc1ccccc1)NO		human, serum	oral, 600 mg twice daily	1.5 h
CC(C)n1nc(-c2ccc3oc(N)nc3c2)c2c(N)ncnc21		human patients, plasma	oral, 1 mg single dose, single agent run-in	9.8 ± 3.7 h
CC(C)(Sc1ccncc1-c1ccc(C#N)c2ccccc12)C(=O)O		human	oral, 2.5 mg, with: febuxostat 80 mg	12.5 h
CC(=O)c1c(C)c2cnc(Nc3ccc(N4CCNCC4)cn3)nc2n(C2CCCC2)c1=O		human	oral, 75 mg/m^2 single dose, day 1	16.6 ± 9 h
CNC(=O)c1ccc(-c2cnc3ncc(Cc4ccc5ncccc5c4)n3n2)cc1F		healthy human subjects, plasma	oral, 200 mg, arithmetic mean, alone	9.29 h
CO[C@H]1C[C@@H]2CC[C@@H](C)[C@@](O)(O2)C(=O)C(=O)N2CCCC[C@H]2C(=O)O[C@H]([C@H](C)C[C@@H]2CC[C@@H](O)[C@H](OC)C2)CC(=O)[C@H](C)/C=C(\C)[C@@H](O)[C@@H](OC)C(=O)[C@H](C)C[C@H](C)/C=C/C=C/C=C/1C		human, whole blood	oral, 16 mg, without ketoconazole	25 h
CN1C(=O)[C@@H](NC(=O)c2nnc(Cc3ccccc3)[nH]2)COc2ccccc21		human male, plasma	oral, 120 mg twice daily, day 1	2.13 h
CCOc1ccc(Cc2cc([C@]34OC[C@](CO)(O3)[C@@H](O)[C@H](O)[C@H]4O)ccc2Cl)cc1		human, type 2 diabetes, severe renal impairment, plasma	oral, 15 mg	24.2 ± 6 h
